Results from different studies.
Every numbered part comes from another study and shows a few of its results, in no order. Substitutions count along the parent as printed.

Series 1
Target: RING finger protein unkempt homolog, zinc fingers 1-6, GST-SBP tag (UNK, Homo sapiens, UniProt Q9C0B0, residues 30-357)
Sequence of UniProt Q9C0B0 (30-357, looked up): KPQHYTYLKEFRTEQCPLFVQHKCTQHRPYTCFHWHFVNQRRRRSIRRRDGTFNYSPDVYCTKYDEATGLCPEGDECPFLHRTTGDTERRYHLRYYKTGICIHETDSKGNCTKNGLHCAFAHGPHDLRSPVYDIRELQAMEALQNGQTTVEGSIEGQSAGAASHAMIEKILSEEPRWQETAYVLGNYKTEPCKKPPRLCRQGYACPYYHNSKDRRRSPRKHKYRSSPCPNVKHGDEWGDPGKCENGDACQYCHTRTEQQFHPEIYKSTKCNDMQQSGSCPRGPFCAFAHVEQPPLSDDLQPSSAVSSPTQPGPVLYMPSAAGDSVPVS
Technique: RNA Bind-n-Seq
Form: RNA
Matrix: in vitro
Concentration: not given
Notes: RNA with constant flanks, human and mouse sites, ends assumed
Baseline: input RNA pool
Direction: higher = stronger binding
Shared flanks, not repeated: GGGAGUUCUACAGUCCGACGAUC … CAACAGAGGAUUGAGCAUCA
Sequence	bound/input enrichment
GCCUUGGCUCCACCCAGUGUGCUUAGUACCAACGUAGGCAGUGUGUACAACACGAAGAAAGUAGGCAAGAGGCUCAACAUCCAGCUUAAGAAAGGUACAGAAGGACUGGGAUUCAGCAUC	0.279 ratio
CUGAAUAGCAAUAAAUAUUUUCCCAGCAGGGUUAGCAUAAAGGAAUCAUCUGUAGCGAAACUAGGAUCAGUAUGCCGUAGGAUUUACAGAAUAUUUUCACAUGCUUAUUUUCAUCAUCGG	1.66 ratio
CAGCUGUGGGAAACGAGCUUUGCUUUUAUAUAUAUAUAUAUAUAUAUAUAUAUAUAUUUAAAUAGGAUACUUUUAUAUGAUGGGUGCUUUGAGUGUGAAUGCAGCAGGCUCUAUCUCAGA	21.4 ratio
GCAAAACCACACCCGGCAUGAGGCAAAUCUUAGUCAACUGCUGUGAAGAGUCUGAAGCAGACCUGUAUCCCACACCUGGGAAUAAAACAAAAACAUAGUCUCAUAACAUUUCAGUGGAUU	0.353 ratio
GUUGUAAGUAGUAUGCCAGAAAGAGCUUCAGAGUCUUCUUCAGAGGAAAAAGAUGAUUAUGAAAUUUUUGUAAAAGUUAAGGACACUCACGAAAAAAGCAAGAAAAAUAAGAACCGUGAU	0.771 ratio
AGGACAUGAGAAGAGGCCAAACUUGCUCAAGAUCAGUUUGUUUUUUCAAGUGUCAUUGCAAUUUAUUACUAUUAGGUACCAAGUGGGUGGGAAUAAUAUACAGCAUUUGUGUCAAGCUAC	0.509 ratio
AAAUCGGGCUGAAGCGACUGAGUCCGCGAUGGAGAGAGAAAAGGAACAGUUCCGUAAGCUCUUUAUUGGUGGCUUAAGCUUUGAAACCACAGAAGAAAGUUUGAGGAACUACUACGAACA	0.264 ratio

Series 2
Target: CCNF, cyclin fold, Cln2 fusion (human)
Technique: yeast growth competition, sequencing
Matrix: yeast
Notes: strong parent motif
Baseline: not given
Direction: higher = stronger binding
Parent: SLBP docking peptide (human); ARYKRKLLINDFG
Change	normalised enrichment score
ARYKRKLLCNDFG [I9C]	1.48
ARYKRKLLINDFC [G13C]	1.49
ARYKRKLLINDYG [F12Y]	1.81
ARYKRKLLITDFG [N10T]	1.99
HRYKRKLLINDFG [A1H]	2.35
ARYKRKSLINDFG [L7S]	0.762
FRYKRKLLINDFG [A1F]	0.97
ARYKRKLPINDFG [L8P]	1.77

Series 3
Target: CREB3L1, bZIP domain (human)
Technique: DHFR protein complementation
Matrix: yeast
Notes: single substitutions, most at no-binding floor
Baseline: wild-type JUN-FOS pair
Direction: higher = stronger binding
Parent: JUN, bZIP domain (human); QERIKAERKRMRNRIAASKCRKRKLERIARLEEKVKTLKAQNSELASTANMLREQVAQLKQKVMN; partner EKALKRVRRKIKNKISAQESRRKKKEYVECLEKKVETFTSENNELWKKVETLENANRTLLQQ
Change	binding fitness
V35M	-1.31 natural log
A29R	-1.3 natural log
T48E	-1.44 natural log
A29K	-1.26 natural log
N42A	-1.44 natural log

Series 4
Substance: PhoQ, residues 284 288 289 292 302 303 TNASYF
Technique: Sort-seq
Measured: YFP reporter
Matrix: E. coli
Notes: PhoQ-PhoP variant library
With: 10 µM Mg2+
Baseline: high Mg2+ state
Direction: higher = stronger signaling
target	fold induction
PhoP, residues 12 14 15 18 19 QYCSL (Escherichia coli, UniProt P23836)	16.4
PhoP, residues 12 14 15 18 19 STHWV (Escherichia coli, UniProt P23836)	7.24
PhoP, residues 12 14 15 18 19 SHWTV (Escherichia coli, UniProt P23836)	1.31

Some of these lines once more (series 3):
Change	binding fitness
A29K	-1.26 natural log
N42A	-1.44 natural log
